# Assay results pooled from the literature.
# Each line is one published result; not all experiments were run side by side. Several values in a cell are separate wells, animals, samples, runs or records. ± marks the error that the study gave.
# USP20 ZnF-UBD domain: Ubiquitin carboxyl-terminal hydrolase 20, ZnF-UBD domain (USP20, Homo sapiens, UniProt Q9Y2K6)
# UniProt Q16774, sequence (whole entry, unmodified, looked up): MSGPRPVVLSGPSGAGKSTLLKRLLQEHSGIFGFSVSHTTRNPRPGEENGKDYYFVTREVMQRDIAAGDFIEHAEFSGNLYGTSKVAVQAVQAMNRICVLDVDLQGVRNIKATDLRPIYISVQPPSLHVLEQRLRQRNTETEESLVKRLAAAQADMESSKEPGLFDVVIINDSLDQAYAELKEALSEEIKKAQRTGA
# UniProt Q9Y2K6, sequence (whole entry, looked up): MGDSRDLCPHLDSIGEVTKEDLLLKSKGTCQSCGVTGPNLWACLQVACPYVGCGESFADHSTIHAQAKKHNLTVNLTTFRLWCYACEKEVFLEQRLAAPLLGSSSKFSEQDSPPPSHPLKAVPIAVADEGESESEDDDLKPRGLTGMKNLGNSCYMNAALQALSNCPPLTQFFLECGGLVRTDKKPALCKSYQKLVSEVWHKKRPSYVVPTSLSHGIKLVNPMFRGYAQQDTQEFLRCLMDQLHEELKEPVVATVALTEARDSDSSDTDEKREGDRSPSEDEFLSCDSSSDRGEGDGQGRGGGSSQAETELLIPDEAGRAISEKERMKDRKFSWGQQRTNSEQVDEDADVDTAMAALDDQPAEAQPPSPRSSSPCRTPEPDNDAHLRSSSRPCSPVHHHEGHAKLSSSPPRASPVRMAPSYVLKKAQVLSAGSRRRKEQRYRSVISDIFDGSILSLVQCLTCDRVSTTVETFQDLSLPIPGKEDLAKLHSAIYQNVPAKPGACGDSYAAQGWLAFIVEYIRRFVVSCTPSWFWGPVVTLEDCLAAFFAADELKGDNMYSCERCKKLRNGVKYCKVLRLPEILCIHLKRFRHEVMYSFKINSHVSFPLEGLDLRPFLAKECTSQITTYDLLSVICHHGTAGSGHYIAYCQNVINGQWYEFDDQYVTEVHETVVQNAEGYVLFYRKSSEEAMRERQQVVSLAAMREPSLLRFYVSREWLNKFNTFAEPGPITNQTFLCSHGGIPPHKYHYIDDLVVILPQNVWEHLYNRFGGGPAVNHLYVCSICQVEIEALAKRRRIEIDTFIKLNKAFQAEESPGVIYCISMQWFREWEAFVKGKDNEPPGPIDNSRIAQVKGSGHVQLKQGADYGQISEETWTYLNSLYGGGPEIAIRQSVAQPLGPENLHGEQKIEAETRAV
# UniProt Q5U3Y7, sequence (whole entry, looked up): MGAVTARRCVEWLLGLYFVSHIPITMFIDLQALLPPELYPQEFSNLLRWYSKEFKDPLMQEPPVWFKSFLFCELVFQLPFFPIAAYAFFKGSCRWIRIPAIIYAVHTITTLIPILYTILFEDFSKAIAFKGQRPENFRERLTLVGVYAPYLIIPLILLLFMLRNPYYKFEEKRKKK
# UniProt Q8NEC5, sequence (whole entry, looked up): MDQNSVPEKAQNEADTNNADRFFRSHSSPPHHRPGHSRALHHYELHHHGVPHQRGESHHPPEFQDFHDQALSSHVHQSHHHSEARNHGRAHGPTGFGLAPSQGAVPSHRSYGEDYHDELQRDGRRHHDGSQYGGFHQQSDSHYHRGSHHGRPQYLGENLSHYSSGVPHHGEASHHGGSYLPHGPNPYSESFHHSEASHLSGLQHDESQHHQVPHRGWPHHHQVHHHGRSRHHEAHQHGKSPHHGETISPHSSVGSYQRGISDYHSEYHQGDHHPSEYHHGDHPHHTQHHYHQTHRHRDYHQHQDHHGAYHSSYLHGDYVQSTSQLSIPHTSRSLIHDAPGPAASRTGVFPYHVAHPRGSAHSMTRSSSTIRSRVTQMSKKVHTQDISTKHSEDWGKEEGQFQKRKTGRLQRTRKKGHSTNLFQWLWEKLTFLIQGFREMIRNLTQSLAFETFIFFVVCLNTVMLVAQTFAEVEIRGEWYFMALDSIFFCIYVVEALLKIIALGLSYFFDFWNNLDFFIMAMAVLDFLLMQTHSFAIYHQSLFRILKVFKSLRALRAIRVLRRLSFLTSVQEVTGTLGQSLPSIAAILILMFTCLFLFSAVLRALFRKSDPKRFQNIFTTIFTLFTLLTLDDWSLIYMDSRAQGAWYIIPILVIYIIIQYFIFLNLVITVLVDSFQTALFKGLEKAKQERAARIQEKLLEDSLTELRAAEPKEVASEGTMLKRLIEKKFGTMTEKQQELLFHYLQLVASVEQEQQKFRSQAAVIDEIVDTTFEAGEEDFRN
# UniProt Q96P56, sequence (whole entry, looked up): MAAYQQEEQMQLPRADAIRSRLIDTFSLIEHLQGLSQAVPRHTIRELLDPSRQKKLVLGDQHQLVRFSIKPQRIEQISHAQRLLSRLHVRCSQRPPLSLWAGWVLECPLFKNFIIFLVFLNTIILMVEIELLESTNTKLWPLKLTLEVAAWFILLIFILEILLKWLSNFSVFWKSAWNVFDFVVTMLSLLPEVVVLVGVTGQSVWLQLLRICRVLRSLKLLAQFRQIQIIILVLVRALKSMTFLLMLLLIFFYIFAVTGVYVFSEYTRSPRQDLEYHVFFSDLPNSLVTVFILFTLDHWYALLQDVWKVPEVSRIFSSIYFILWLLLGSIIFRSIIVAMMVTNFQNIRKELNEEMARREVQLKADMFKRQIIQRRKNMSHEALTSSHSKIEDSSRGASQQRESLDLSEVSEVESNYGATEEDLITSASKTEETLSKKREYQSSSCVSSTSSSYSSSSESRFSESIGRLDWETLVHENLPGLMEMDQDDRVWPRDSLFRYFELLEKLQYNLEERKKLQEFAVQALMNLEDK
# UniProt Q15208, sequence (whole entry, looked up): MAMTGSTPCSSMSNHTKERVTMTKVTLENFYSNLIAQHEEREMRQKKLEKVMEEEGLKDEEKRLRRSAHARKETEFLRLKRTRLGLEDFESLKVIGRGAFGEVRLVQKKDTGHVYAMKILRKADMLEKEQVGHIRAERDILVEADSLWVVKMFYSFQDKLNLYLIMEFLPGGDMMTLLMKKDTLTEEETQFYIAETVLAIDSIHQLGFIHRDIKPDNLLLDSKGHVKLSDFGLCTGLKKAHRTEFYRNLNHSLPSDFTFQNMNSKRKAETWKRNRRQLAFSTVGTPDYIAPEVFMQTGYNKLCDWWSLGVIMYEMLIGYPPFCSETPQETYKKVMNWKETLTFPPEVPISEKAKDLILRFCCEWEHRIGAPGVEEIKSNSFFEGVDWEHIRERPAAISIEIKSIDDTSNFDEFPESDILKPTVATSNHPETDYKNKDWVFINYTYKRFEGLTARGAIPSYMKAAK
# UniProt Q93009, sequence (whole entry, unmodified, looked up): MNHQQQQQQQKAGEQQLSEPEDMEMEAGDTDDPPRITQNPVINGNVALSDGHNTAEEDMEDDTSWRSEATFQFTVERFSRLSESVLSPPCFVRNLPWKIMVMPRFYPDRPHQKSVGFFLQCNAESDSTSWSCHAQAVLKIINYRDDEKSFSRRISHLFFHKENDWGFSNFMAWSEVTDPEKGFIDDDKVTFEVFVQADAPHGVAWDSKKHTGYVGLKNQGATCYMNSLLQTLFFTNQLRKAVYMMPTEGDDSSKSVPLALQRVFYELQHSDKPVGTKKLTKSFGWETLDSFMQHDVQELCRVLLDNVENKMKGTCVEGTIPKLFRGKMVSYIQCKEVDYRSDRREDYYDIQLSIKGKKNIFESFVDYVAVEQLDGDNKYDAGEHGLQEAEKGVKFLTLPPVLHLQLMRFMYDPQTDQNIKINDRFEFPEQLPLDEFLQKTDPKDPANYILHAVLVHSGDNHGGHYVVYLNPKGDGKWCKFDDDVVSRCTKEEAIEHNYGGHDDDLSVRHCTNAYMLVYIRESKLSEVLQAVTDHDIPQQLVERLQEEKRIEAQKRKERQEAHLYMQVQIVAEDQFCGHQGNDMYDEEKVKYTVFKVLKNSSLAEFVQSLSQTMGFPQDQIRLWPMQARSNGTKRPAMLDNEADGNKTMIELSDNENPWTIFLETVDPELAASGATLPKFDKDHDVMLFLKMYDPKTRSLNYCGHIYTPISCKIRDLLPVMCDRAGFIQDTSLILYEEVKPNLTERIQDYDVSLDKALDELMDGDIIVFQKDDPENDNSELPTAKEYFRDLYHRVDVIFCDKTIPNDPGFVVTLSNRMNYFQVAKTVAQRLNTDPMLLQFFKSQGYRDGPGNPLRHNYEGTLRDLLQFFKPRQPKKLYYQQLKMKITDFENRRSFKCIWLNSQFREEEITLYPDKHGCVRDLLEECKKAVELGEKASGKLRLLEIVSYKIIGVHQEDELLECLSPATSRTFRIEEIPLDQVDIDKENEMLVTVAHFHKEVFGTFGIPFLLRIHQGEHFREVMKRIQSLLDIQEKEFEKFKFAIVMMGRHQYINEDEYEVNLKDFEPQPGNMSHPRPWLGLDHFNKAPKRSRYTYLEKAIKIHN
# UniProt Q86XQ3, sequence (whole entry, looked up): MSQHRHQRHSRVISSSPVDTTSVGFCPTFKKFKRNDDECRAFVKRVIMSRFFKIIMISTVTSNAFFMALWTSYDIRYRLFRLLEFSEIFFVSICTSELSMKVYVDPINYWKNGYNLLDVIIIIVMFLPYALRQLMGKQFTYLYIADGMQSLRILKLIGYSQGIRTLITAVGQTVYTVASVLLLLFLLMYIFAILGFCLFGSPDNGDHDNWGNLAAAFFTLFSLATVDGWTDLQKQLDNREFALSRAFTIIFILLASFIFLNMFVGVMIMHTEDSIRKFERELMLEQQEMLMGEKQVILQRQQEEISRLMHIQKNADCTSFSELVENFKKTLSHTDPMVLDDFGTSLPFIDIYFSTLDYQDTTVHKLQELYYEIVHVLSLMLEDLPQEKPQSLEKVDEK
# UniProt Q96SW2, sequence (whole entry, looked up): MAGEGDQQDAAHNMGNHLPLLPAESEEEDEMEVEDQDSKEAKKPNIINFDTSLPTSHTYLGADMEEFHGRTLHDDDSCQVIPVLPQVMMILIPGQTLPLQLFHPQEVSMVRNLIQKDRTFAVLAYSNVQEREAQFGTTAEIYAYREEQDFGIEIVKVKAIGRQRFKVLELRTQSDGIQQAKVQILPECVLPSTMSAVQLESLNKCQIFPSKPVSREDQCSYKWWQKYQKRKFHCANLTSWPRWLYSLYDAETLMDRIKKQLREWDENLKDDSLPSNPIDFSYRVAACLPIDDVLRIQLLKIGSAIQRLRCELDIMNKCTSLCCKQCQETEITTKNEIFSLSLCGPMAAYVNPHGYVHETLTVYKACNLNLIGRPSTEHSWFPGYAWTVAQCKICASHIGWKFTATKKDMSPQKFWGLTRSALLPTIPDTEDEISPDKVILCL
Structure (SMILES),target or system,test,test system,setting,measurement,value
CC[C@@H]1[C@H](F)C(=O)N[C@@H]1COc1nccc2cc(C(N)=O)c(OC)cc12,"STK38 (Homo sapiens, UniProt Q15208)","ATP-site probe binding, ActivX profiling",THP-1 cell lysate,"0.01 mM, Lys2 site",inhibition,-3.8%
C=CC(=O)N1CCC(COCC(=O)N2CCN(c3nc(-c4cnc(N)nc4C(F)F)nc(N4CCOC[C@@H]4C)n3)CC2)CC1,"KIT (Homo sapiens, UniProt P10721, L576P)",KINOMEscan,,1 µM,remaining binding,82%
CC(C)C[C@H](NC(=O)C[C@H](O)[C@H](CC(C)C)NC(=O)[C@H](Cc1c[nH]cn1)NC(=O)CNC(=O)[C@@H](NC(=O)[C@H](C)NC(=O)[C@H](Cc1c[nH]c2ccccc12)NC(=O)[C@H](CCC(N)=O)NC(=O)[C@@H](Cc1ccccc1)NC(=O)COCCOCCNC(=O)CCC(C(=O)O)N1CCN(CC(=O)O)CCN(CC(=O)O)CCN(CC(=O)O)CC1)C(C)C)C(N)=O (some centres unmarked) [lutetium-177 labelled],,,"female BALB/c nu/nu mice, blood","intravenous, 50 pmol, 1 h",tissue uptake,0.4 ± 0.1 %ID/g
CCC(C)(NCCc1ccc(OC)cc1)c1cccc(NC2=CC(=O)N(C3CCC(=O)NC3=O)C2=O)c1 (centres unmarked),"ZBTB11/CRBN (Homo sapiens, UniProt O95625+Q96SW2)","protein degradation, degrader, HiBiT luminescence",MOLT-4,,Dmax,28%
O=C(C[C@@H](C(F)F)n1ccc(F)n1)N1CCC(O)(Cn2cnc3c(cnn3-c3ccc(F)cc3)c2=O)CC1,"USP7 (Homo sapiens, UniProt Q93009, V517I)",isothermal titration calorimetry,,"concentration not given, USP7 V517I",binding enthalpy,-18.7 ± 0.167 kcal/mol
O=C(O)CCn1c(=O)oc2ccccc21,USP20 ZnF-UBD domain,,,,Kd,> 1000 µM
CCc1oc2ccccc2c1C(=O)c1cc(Br)c(O)c(Br)c1,"SLC22A12 (Homo sapiens, UniProt Q96S37)",inhibitor,HEK-293T,"3 µM, 10 min, 37 °C, with: [14C]urate 10 µM",normalized urate uptake,0.172 and 0.175 and 0.183
Nc1nc2c(ncn2[C@@H]2O[C@H](COP(=O)(O)O)[C@@H](O)[C@H]2O)c(=O)[nH]1,"GUK1 (Homo sapiens, UniProt Q16774, S37A)","enzyme activity, NADH-coupled",,31.25 µM,reaction rate,-1.4 s⁻¹ and 4.22 s⁻¹ and -0.268 s⁻¹
C[C@H]1C(=O)/C(=C/c2ccccc2)[C@H]2C[C@@H]1N(Cc1ccccc1)C[C@@]2(C)O,"Tmem97 (Rattus norvegicus, UniProt Q5U3Y7)",radioligand binding,,"1 µM, with: [3H]DTG",binding,no binding
O=C(O)CCc1nccs1,USP20 ZnF-UBD domain,,,,Kd,439 µM
O=C(Nc1cccc(C(F)(F)F)c1)N1CCN(c2cccc(C(F)(F)F)c2)CC1,"CatSper channel complex (Homo sapiens, UniProt Q7RTX7+Q86XQ3+Q8NEC5+Q96P56)","ion current, whole-cell patch clamp",human sperm,"10 µM, at +80 mV",outward current density,15 ± 2.4 pA/pF

# Some of these lines once more:
Structure (SMILES),target or system,test,test system,setting,measurement,value
CC[C@@H]1[C@H](F)C(=O)N[C@@H]1COc1nccc2cc(C(N)=O)c(OC)cc12,"STK38 (Homo sapiens, UniProt Q15208)","ATP-site probe binding, ActivX profiling",THP-1 cell lysate,"0.01 mM, Lys2 site",inhibition,-3.8%
C=CC(=O)N1CCC(COCC(=O)N2CCN(c3nc(-c4cnc(N)nc4C(F)F)nc(N4CCOC[C@@H]4C)n3)CC2)CC1,"KIT (Homo sapiens, UniProt P10721, L576P)",KINOMEscan,,1 µM,remaining binding,82%
